Published values gathered from unrelated publications.
A part holds a random share of what one study measured. Values joined by “and” are separate records of one study, mostly repeats; a detail may differ.
Sequence of UniProt P37173 (whole entry, looked up): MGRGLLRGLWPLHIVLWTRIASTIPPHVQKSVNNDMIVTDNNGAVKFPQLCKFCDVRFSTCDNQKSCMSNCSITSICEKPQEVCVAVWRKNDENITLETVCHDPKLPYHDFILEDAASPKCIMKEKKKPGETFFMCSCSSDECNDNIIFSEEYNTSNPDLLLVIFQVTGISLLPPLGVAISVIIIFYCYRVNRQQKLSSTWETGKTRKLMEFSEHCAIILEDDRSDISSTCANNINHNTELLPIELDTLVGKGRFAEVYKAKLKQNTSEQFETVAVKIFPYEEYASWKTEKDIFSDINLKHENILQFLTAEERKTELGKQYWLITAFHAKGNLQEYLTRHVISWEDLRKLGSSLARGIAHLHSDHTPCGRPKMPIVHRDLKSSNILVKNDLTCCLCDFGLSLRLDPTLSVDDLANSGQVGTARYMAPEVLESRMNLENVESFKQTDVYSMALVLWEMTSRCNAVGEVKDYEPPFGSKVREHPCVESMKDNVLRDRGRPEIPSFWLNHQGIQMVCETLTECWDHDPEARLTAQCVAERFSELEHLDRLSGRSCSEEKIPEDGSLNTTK

Series 1 — sample: plasma; quantity: Tmax
SMILES: O=C1CCC(N2Cc3cc(C4CCN(Cc5ccccc5)CC4)ccc3C2=O)C(=O)N1 (stereo not shown)
Sprague Dawley rat, male; intravenous, 1.0 mg/kg: 15 min
ICR mouse, male; intravenous, 1.0 mg/kg: 4.8 min
Sprague Dawley rat, male; oral, 3.0 mg/kg: 120 min

Series 2 — cell line: mouse MPNST tumor cells; technique: high-content nuclear imaging; item: cell number; concentration: 10 µM; time: 12 h; notes: mean of 2 replicates; reference: plate mean; direction: higher = more cells; quantity: nuclei count
CN(C)c1cc(NC(=O)CNC(C)(C)C)c(O)c2c1CC1CC3C(N(C)C)C(=O)C(C(N)=O)=C(O)C3(O)C(=O)C1=C2O (stereo not shown): -0.0851 z-score
NCCC[C@H](N)CC(=O)N[C@H]1CNC(=O)[C@H]([C@H]2C[C@H](O)NC(N)=N2)NC(=O)/C(=C/NC(N)=O)NC(=O)[C@H](CO)NC(=O)[C@H](CO)NC1=O: -0.404 z-score
CC(=O)Oc1ccccc1C(=O)Nc1ncc([N+](=O)[O-])s1: 1.98 z-score and 5.58 z-score
Cc1cccc(CN2CCN(C(c3ccccc3)c3ccc(Cl)cc3)CC2)c1 (stereo not shown): 0.0404 z-score and 0.534 z-score
c1ccc(-c2[nH]ncc2-c2ccnc3ccccc23)nc1: -2.27 z-score
O=C(NC[C@H](O)CN1CCc2ccccc2C1)c1cc(NC2COC2)ncn1: 1.38 z-score
c1ccc(-c2ccc(CNc3nc(-c4ccccn4)nnc3-c3ccccc3)cc2)cc1: 0.814 z-score

Series 3 — observed: enzyme activity; mode: inhibitor; concentration: 0.5 µM; reference: control; quantity: remaining activity
Target: Tyrosine-protein kinase Fgr (FGR, Homo sapiens, UniProt P09769)
Sequence of UniProt P09769 (whole entry, looked up): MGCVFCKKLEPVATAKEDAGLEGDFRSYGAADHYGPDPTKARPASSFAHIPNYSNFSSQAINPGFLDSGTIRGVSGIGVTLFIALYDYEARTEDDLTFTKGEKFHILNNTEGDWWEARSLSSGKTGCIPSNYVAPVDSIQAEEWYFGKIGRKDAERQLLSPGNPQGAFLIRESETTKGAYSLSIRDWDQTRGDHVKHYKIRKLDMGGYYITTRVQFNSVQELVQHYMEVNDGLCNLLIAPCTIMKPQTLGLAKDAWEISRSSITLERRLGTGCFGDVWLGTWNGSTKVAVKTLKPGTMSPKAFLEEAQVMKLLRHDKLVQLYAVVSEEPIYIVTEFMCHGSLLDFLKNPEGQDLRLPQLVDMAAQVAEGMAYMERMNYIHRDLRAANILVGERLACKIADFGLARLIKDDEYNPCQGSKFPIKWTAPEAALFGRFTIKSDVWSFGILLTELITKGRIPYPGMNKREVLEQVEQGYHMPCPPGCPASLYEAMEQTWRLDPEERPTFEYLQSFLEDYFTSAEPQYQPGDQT
c1ccc(-c2[nH]ncc2-c2ccnc3ccccc23)nc1: 91.9%
N#C/C(=C\c1ccc(O)c(O)c1)C(=O)NCc1ccccc1: 93.7%
O=C1c2ccccc2-c2n[nH]c3cccc1c23: 88.8%
O=c1cc(-c2cccc3c2Sc2ccccc2S3)oc(N2CCOCC2)c1: 84.9%
CN([C@@H](Cc1ccc(OS(=O)(=O)c2cccc3cnccc23)cc1)C(=O)N1CCN(c2ccccc2)CC1)S(=O)(=O)c1cccc2cnccc12: 99.5%
CCN(CC)CCNC(=O)c1c(C)[nH]c(/C=C2\C(=O)Nc3ccc(Cl)cc32)c1C: 11.5%
CCN(CC)CCNC(=O)c1c(C)[nH]c(/C=C2\C(=O)Nc3ccc(F)cc32)c1C: 16.4%
O=C1C(Cl)=C(N2C(=O)CCC2=O)C(=O)c2ccccc21: 102%
CCN(CC)C(=O)c1ccc(Nc2nc(OCC3CCCCC3)c3[nH]cnc3n2)cc1: 54.2%
Cc1cc2ncc(-c3ccccc3)nc2cc1C: 99.1%
Nc1cccc(-c2cc3c(Oc4cccc(O)c4)ncnc3[nH]2)c1: 5.28%
c1ccc(-c2cnc(Nc3ccc(OCCN4CCCC4)cc3)s2)cc1: 65.7%
Cc1nc2cc3nc(-c4cccs4)cnc3cc2n1C: 89.3%
COc1cc2ncnc(Nc3ccc(O)c(Br)c3)c2cc1OC: 57.8%
CN(C)C[C@H]1CCn2c(c(C3=C(c4cn(C)c5ccccc45)C(=O)NC3=O)c3ccccc32)C1: 97.2%
Cc1cn(-c2cc(NC(=O)c3ccc(C)c(Nc4nccc(-c5cccnc5)n4)c3)cc(C(F)(F)F)c2)cn1: 63.7%
N#Cc1c(NC(=O)c2cccc3ccccc23)sc2c1CCCC2: 98.1%
COc1cc2c(cc1OC)-c1[nH]nc(Nc3cccc(F)c3)c1C2: 47.2%
C[C@@H]1CCN(C(=O)CC#N)C[C@@H]1N(C)c1ncnc2[nH]ccc12: 91.1%
Cn1nc2c3c(cccc31)C(=O)c1ccccc1-2: 93.4%
Ic1cccc(CSc2nnc(-c3ccncc3)o2)c1: 90.9%
O=C(Nc1cccc(Nc2nccc(Nc3cccc(C(F)(F)F)c3)n2)c1)C1CC1: 80.9%
CCOc1nc(NC(=O)Cc2cc(OC)ccc2OC)cc(N)c1C#N: 93.6%
O=C(NC(NC(=S)Nc1ccc(F)c([N+](=O)[O-])c1)C(Cl)(Cl)Cl)C(c1ccccc1)c1ccccc1 (stereo not shown): 84.5%
COc1cc2ncnc(Nc3cccc(Cl)c3)c2cc1OC: 75.3%

Series 4 — species: mouse; sample: microsomes or S9; concentration: 2 µM; time: 0.5 h; quantity: remaining compound
COCCN1C(=O)c2ccccc2C(C(=O)N(C)c2ccccc2Cl)C1c1cccs1 (stereo not shown): 1.82%
Cc1cc(=O)c(OCC(=O)Nc2ccc3[nH]c(CC(C)C)nc3c2)c[nH]1: 53.6%
Cn1ncc2cc(-c3ccc(C(C)(C)C)cc3)c(-c3ccc(C(C)(C)C)cc3)cc21: 33.9%
COc1cc2c(cc1Nc1ncc(Cl)c(Nc3ccc(C4CCN(C(C)=O)CC4)cc3OC)n1)CCCNC2: > 100%
CC(C)c1nc2sc3c(c2c(=O)[nH]1)CC(C)(C)OC3: 63.6%
CCC1=NN2C(=NC(C(=O)O)=CC2c2ccc(O)cc2)N1 (stereo not shown): 91.9%
O=C(Cn1nc(C(=O)N2CCc3ccccc32)c2cc(F)ccc21)OCc1ccccc1: 0.364%
O=C(O)c1ccc(-c2nc3scc(-c4ccc(F)cc4)c3c(=O)[nH]2)cc1: > 99%
O=C(CCN1C(=O)c2ccccc2N2C(=O)c3ccccc3C12)NCC1CCOCC1 (stereo not shown): 20.1%
N#Cc1ccc2[nH]cc(S(=O)(=O)c3cc(Cl)cc(Cl)c3)c(=O)c2c1: 20%
COc1c(F)c(F)cc2c(=O)c(C(=O)NCCCN3CCCC3=O)cn(C3CC3)c12: 27.6%
Cc1cnn(CCCn2ncc(N(C)C)cc2=O)c1: 9.65%
COC(=O)C1(C)Cc2ccc(Cl)cc2C(=O)O1 (stereo not shown): 2.34%

Other studies, line by line
CC(=O)N1CCC(c2ccc(C(=O)NC3=NCCN3)cc2C(F)(F)F)CC1  viability (normal organoid sample F; CellTiter-Glo; human, normal-adjacent epithelium; 1 µM; reference: DMSO): 114% and 112%
C[C@@H]1O[C@@]2(CS1)CN1CCC2CC1  viability (A-375; 100 µM, 60 h): 95.4%
Cc1cc(NC(=O)c2cccc(S(F)(F)(F)(F)F)c2)cc(-n2ccn3nc(-c4cccnc4)cc23)c1  Kd (TGF-beta receptor type-2 (TGFBR2, Homo sapiens, UniProt P37173); binding, competition with immobilised ligand): 54 nM
COc1cc(-c2cn(C3CCc4ccccc4N(CC(F)(F)F)C3=O)nn2)ccc1-n1ccc(C)n1 (stereo not shown)  viability (normal organoid sample F; CellTiter-Glo; human, normal-adjacent epithelium; 1 µM; reference: DMSO): 83.4% and 112%

For quick reference, copied from above (series 3):
Cn1nc2c3c(cccc31)C(=O)c1ccccc1-2: 93.4%
Ic1cccc(CSc2nnc(-c3ccncc3)o2)c1: 90.9%
O=C(Nc1cccc(Nc2nccc(Nc3cccc(C(F)(F)F)c3)n2)c1)C1CC1: 80.9%
CCOc1nc(NC(=O)Cc2cc(OC)ccc2OC)cc(N)c1C#N: 93.6%
O=C(NC(NC(=S)Nc1ccc(F)c([N+](=O)[O-])c1)C(Cl)(Cl)Cl)C(c1ccccc1)c1ccccc1 (stereo not shown): 84.5%
